Measurements of several laboratories.
Compare with care: the assays were run in different laboratories. Values joined by “and” are separate records of one study, mostly repeats; a detail may differ. ± marks the error that the study gave.
Chain of UniProt P05177 (whole entry, looked up): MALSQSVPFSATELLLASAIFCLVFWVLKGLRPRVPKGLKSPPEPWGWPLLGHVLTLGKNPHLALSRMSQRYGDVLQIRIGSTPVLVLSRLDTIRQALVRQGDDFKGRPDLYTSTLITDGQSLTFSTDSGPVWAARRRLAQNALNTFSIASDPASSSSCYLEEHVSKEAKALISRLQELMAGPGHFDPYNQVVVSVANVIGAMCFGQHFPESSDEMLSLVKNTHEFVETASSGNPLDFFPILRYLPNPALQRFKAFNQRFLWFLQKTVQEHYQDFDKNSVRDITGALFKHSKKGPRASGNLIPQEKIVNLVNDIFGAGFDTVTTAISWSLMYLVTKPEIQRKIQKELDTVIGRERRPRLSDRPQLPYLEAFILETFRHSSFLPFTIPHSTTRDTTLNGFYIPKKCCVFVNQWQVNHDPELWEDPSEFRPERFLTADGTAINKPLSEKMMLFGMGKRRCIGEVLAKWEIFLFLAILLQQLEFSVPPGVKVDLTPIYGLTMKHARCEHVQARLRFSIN

`O=C1NC2(CC2)COc2ncc(F)cc2[C@H]2COCCN2c2ccn3ncc1c3n2` gave a revertant colonies of 98 ± 15 revertants/plate (Salmonella typhimurium; Ames test; TA97a; 150 µg/plate, 48 h, together with: rat liver S9).
The fold induction of `C=CC(=O)Nc1cc(Nc2nccc(-c3cn(C)c4ccccc34)n2)c(OCC(F)(F)F)nc1N(C)CCN(C)C` is reported as 5.23 (human hepatocytes lot LTG; CYP1A2 enzyme activity, inducer; 1 µM; reference: DMSO).
For `CC(C)Cc1ccc(C(C)C(=O)N[C@@H](CCCCNC(=O)CCOCCOCCOCCOCCOCCOCCNC(=O)CN2CCN(CC(=O)[O-])CCN(CC(=O)[O-])CCN(CC(=O)[O-])CC2)C(=O)Nc2cccc3c(C(=O)NCC(=O)N4CC(F)(F)C[C@H]4C#N)ccnc23)cc1.[177Lu+3]` (stereo partly drawn), the tracer uptake was 6.55 %ID/g (U-87 MG tumour model; host not given, pancreas; 4 h, tumour-bearing).
Under “revertant fold increase”, `CC(C)OCCOCc1ccc(OCC(O)CN(N=O)C(C)C)cc1` (stereo not drawn) is recorded as 0.9 fold (Salmonella typhimurium; Ames test; TA1537; 15.8 µg/plate, 30 % hamster S9; reference: solvent control).
`N#C[C@@H]1CC(F)(F)CN1C(=O)CNC(=O)c1ccnc2c(NC(=O)[C@H](CCCCNC(=O)CCOCCOCCOCCOCCOCCOCCNC(=O)CN3CCN(CC(=O)[O-])CCN(CC(=O)[O-])CCN(CC(=O)[O-])CC3)NC(=O)CCCc3ccc(I)cc3)cccc12.[177Lu+3]` has a tracer uptake of 0.4 %ID/g (U-87 MG tumour model; host not given, bone; 96 h, tumour-bearing).
For `O=C(Nc1cnccc1-c1ccc([18F])cc1)c1ccnc(NC(=O)C2CC2)c1`, the SUV was 2.22 (FVB/NJ mice (both sexes), small intestine; intravenous, dose not given, 120 min, together with: tariquidar 15 mg/kg i.v. pre-dose).
The tracer uptake of `COc1cccc(OC)c1-c1cc(C(=O)NC2(C(=O)O)C3CC4CC(C3)CC2C4)nn1-c1ccc(C(=O)NCCNC(=O)[C@H](CCCCNC(=O)[C@H](CC(C)C)NC(=O)C2OC2C(=O)O)NC(=O)CN2CCN(CC(=O)[O-])CCN(CC(=O)[O-])CCN(CC(=O)[O-])CC2)cc1C(C)C.[177Lu+3]` (mixture of isomers) is reported as 0.1 %ID/g (HT-29 tumour model; host not given, stomach; 7 days, tumour-bearing).
For `CCN(CC)CC#CCNc1ccnc2cc(Cl)ccc12`, the mean revertants was 15 revertants/well (Salmonella typhimurium; mini-Ames test; TA100; 500.0 µg/well, with rat liver S9).
`Nc1nc2cc(C(=O)c3ccc(F)cc3)ccc2[nH]1` has a revertants of 25.7 revertants/plate (Salmonella typhimurium; Ames preincubation test; TA98; 39.0 µg/plate, without S9).
`CC(C)(O)c1ncc([S@](N)(=O)=NC(=O)Nc2c3c(cc4c2CCC4)CCC3)s1` — result for “share of subjects with TEAEs”: 17% (refers to: nervous system disorders; healthy human subjects; oral, 100 mg, total).
`CN1CCCNC(=O)c2cccc(c2)C(=O)NCCCN(C)CCCNc2cccc3c2C(=O)c2cccc(c2C3=O)NCCC1` has a viability of 100% (HSC-2; cell growth or viability, CCK-8; 15 nM, 48 h).
Under “mean revertant colonies”, `O=C1C2CC3CC1CC(C(=O)N1CCN(c4ccc([N+](=O)[O-])c5ncccc45)CC1)(C3)C2` is recorded as 7 colonies/well (Salmonella typhimurium; Ames test; TA98; 0.13 µg/well, with S9).
For `Brc1cccc(-c2cc(CN3c4ccccc4C=Cc4ccccc43)on2)c1`, the IC50 was > 30 µM (BJ; cytotoxicity).
`N#C[C@@H]1CC(F)(F)CN1C(=O)CNC(=O)c1ccnc2c(NC(=O)[C@@H](N)CCCCNC(=O)CCOCCOCCOCCOCCOCCOCCNC(=O)CN3CCN(CC(=O)[O-])CCN(CC(=O)[O-])CCN(CC(=O)[O-])CC3)cccc12.[177Lu+3]` has a tracer uptake of 0.53 %ID/g (U-87 MG tumour model; host not given, blood; 1 h, tumour-bearing).
For `COc1cccc(OC)c1-c1cc(C(=O)NC2(C(=O)O)C3CC4CC(C3)CC2C4)nn1-c1ccc(C(=O)N(C)CCCN(C)CCCN(C)C(=O)[C@H](CCCCNC(=O)[C@H](CC(C)C)NC(=O)C2OC2C(=O)O)NC(=O)CN2CCN(CC(=O)[O-])CCN(CC(=O)[O-])CCN(CC(=O)[O-])CC2)cc1C(C)C.[177Lu+3]` (mixture of isomers), the tracer uptake was 0.4 %ID/g (HT-29 tumour model; host not given, bone; 7 days, tumour-bearing).
For `CNC(=O)C1CCCN(C(=O)C2CC3CCC2N3C(=O)[C@@H]2C[C@@H](O)CN2C(=O)NCc2cccc(Cl)c2F)C1` (mixture of isomers), the remaining activity was 89.5% and 94.3% and 96.6% (Cytochrome P450 1A2 (CYP1A2, Homo sapiens, UniProt P05177); preincubation without NADPH; human; 0.0686 µM; reference: negative control).
For `Cc1nc2cccc(OCC(C)(C)C(=O)NC(C)C)c2c(N)c1C(=O)[O-].[Na+]`, “relative mitotic index” read 78% (human peripheral blood lymphocytes; 500 g/mL, 3 h, without S9).
`N#C[C@@H]1CCCN1C(=O)CNC(=O)c1ccnc2ccc(OCCCN3CCN(C(=O)CCc4ccc(O)c(CN5CCN6CC(=O)[O][Al-]([18F])([O]C(=O)C5)[O]c5ccc(CCC(=O)N7CCN(CCCOc8ccc9nccc(C(=O)NCC(=O)N%10CCC[C@H]%10C#N)c9c8)CC7)cc5C6)c4)CC3)cc12` (stereo partly drawn) has a tracer uptake of 2.51 %ID/g (U-87 MG tumour model; host not given, stomach; 1 h, tumour-bearing).
For `O=C(Nc1cnccc1-c1ccc([18F])nc1)c1ccnc(NC(=O)C2CC2)c1`, the median SUV was 0.048 (PET imaging; FVB/NJ mice, both sexes, brain; intravenous, 60 min post-injection).
For `N#C[C@@H]1CCCN1C(=O)CNC(=O)c1ccnc2ccc(OCCCN3CCN(C(=O)CCc4ccc5c(c4)CN4CCN(Cc6cc(CCC(=O)O)ccc6O)CC(=O)[O][Al-]([18F])([O]C(=O)C4)[O]5)CC3)cc12` (stereo partly drawn), the tracer uptake was 1.6 %ID/g (U-87 MG tumour model; host not given, liver; 1 h, tumour-bearing).
`C=C(NC(=O)c1csc(-c2nc3c(cc2O)-c2nc(cs2)C(=O)NC(C(C)O)C(=O)NC(=C(C)OC)c2nc(cs2)C(=O)NC2c4nc(cs4)C(=O)NC(COC(=O)c4c5c6c(cccc6n4O)COC(=O)C(OC4CC(C)(O)C(N(C)C)C(C)O4)C2OC5)c2nc-3cs2)n1)C(N)=O` (stereo not drawn) has a Cmax of 679 ng/mL (ICR mice, Streptococcus pneumoniae ATCC 49169 infected, immunocompromised, blood; intravenous, 16 mg/kg/day three times daily).

Repeated from above:
For `CNC(=O)C1CCCN(C(=O)C2CC3CCC2N3C(=O)[C@@H]2C[C@@H](O)CN2C(=O)NCc2cccc(Cl)c2F)C1` (mixture of isomers), the remaining activity was 89.5% and 94.3% and 96.6% (Cytochrome P450 1A2 (CYP1A2, Homo sapiens, UniProt P05177); preincubation without NADPH; human; 0.0686 µM; reference: negative control).
For `Cc1nc2cccc(OCC(C)(C)C(=O)NC(C)C)c2c(N)c1C(=O)[O-].[Na+]`, “relative mitotic index” read 78% (human peripheral blood lymphocytes; 500 g/mL, 3 h, without S9).
`N#C[C@@H]1CCCN1C(=O)CNC(=O)c1ccnc2ccc(OCCCN3CCN(C(=O)CCc4ccc(O)c(CN5CCN6CC(=O)[O][Al-]([18F])([O]C(=O)C5)[O]c5ccc(CCC(=O)N7CCN(CCCOc8ccc9nccc(C(=O)NCC(=O)N%10CCC[C@H]%10C#N)c9c8)CC7)cc5C6)c4)CC3)cc12` (stereo partly drawn) has a tracer uptake of 2.51 %ID/g (U-87 MG tumour model; host not given, stomach; 1 h, tumour-bearing).
